Experimental data of several laboratories.
Lines come from different studies, so protocols differ. ± marks the error that the study gave.

COc1cc2cc(-c3ccc(CC(=O)Nc4cc(C(C)(C)C(F)(F)F)no4)cn3)cnc2cc1OC: “progressive disease as best response” 23% (RECIST v1.1; RET-altered advanced solid tumour patients; oral, 75 mg once daily, phase I).
The train-of-four ratio of CN(C)C(=O)Oc1cccc([N+](C)(C)C)c1 is reported as 32 (neuromuscular block reversal; rat; dose not given, 5.5 (unit not given), together with: cisatracurium; reference: T1 twitch).
CS(=O)(=O)CCNCc1ccc(-c2ccc3ncnc(Nc4ccc(OCc5cccc(F)c5)c(Cl)c4)c3c2)o1 has an ED50 of under 25 mg/kg (tumour growth; BT-474 orthotopic xenograft, mouse; oral, daily for 28 days).
For CN[C@@H]1COc2c(S(=O)(=O)NC(=O)Nc3c4c(cc5c3CCC5)CCC4)cnn2C1, the inhibition was 99.6% (item: IL-18; human participants, whole blood ex vivo; 300 mg twice daily, multiple doses, 148 h, IL-18, circulating, adjusted for, together with: LPS/ATP; reference: baseline).
CC(C)[C@H](C(=O)Nc1ccc(C(=O)NO)cc1)c1ccccc1 gave a tumour volume of 0.0707 cm3 (volumetric MRI; human, right C1 intradural meningioma; dose not given, day 64).
C=C1CC[C@H](OCCCNC(=O)CCOCCOCCOCCOCCOCCOCCOCCOCCOCCOCCOCCOCCOCCOCCOCCOCCOCCOCCOCCOCCOCCOCCOCCOCCOCCOCCOCCOCCOCCOCCOCCOCCOCCOCCOCCOCCNC(=O)CCN2C(=O)CC(SC[C@H](NC(=O)[C@H](CCCNC(=N)N)NC(=O)[C@@H]3CCCN3C(=O)[C@H](CCC(N)=O)NC(=O)[C@H](CC(C)C)NC(=O)[C@H](CCCCN)NC(=O)[C@H](C)NC(=O)[C@@H]3CCCN3C(=O)[C@@H]3CCCN3C(=O)[C@H](CCCCN)NC(=O)[C@H](CCCCN)NC(=O)[C@H](CO)NC(=O)[C@H](CCC(=O)O)NC(=O)[C@H](CCCCN)NC(=O)[C@H](CCCNC(=N)N)NC(=O)[C@H](CCC(N)=O)NC(=O)[C@H](CCC(N)=O)NC(=O)[C@@H](NC(=O)[C@H](CCCNC(=N)N)NC(=O)[C@H](CCC(N)=O)NC(=O)[C@H](Cc3c[nH]cn3)NC(=O)[C@H](CCC(=O)O)NC(=O)[C@@H]3CCCN3C(=O)[C@H](CO)NC(=O)[C@H](CC(C)C)NC(=O)[C@H](Cc3ccccc3)NC(=O)[C@H](CNC(=O)CCCCCCC)NC(=O)[C@H](CO)NC(=O)CN)C(C)C)C(=O)O)C2=O)C/C1=C/C=C1\CCC[C@]2(C)[C@@H]([C@H](C)CCCC(C)(C)O)CC[C@@H]12 (stereo partly drawn): “food intake decrease” 6% (C57BL/6J mice, LLC tumour-induced cachexia; subcutaneous, 0.5 mg/kg every other day, 2 weeks; reference: tumour-bearing vehicle).
N#Cc1ccc2c(c1)[C@H]1CCCN(C(=O)c3ccc4[nH]cnc4c3)[C@H]1C2 — result for “systolic blood pressure change”: -2.8 mmHg (human, Phase II trial; oral, 80 mg once daily, day 28, adjusted mean, SE).
Cc1ccc(C(=O)Nc2ccnc(S(N)(=O)=O)c2)c(N2CCCC(F)(F)CC2)n1: conduction velocity “no effect” (C-nociceptor recordings; rhesus macaque; dose not given).
Under “GSEA enrichment score”, CN(C)C(=O)c1cc2cnc(Nc3ccc(N4CCNCC4)cn3)nc2n1C1CCCC1 is recorded as 0.334 (RNA-seq GSEA, item: HALLMARK_ANDROGEN_RESPONSE; MB002 tumour; concentration not given, in vivo; reference: vehicle, direction not given).
For COC(=O)CCc1ccc(OCC(O)CNC(C)C)cc1 (stereo not drawn), “systolic blood pressure” read 109 mm Hg (healthy male humans; concentration not given, 15 min, baseline before dosing, together with: saline).
OC(CCN1CCCCC1)(c1ccccc1)C1CC2C=CC1C2 (stereo not drawn) — result for “change, Delta EEG power, in O2-Pz”: 35.9% (resting-state EEG; healthy elderly humans; oral, 4 mg, eyes closed, LS mean; reference: baseline).
For CC1(C)CCC(CN2CCN(c3ccc(C(=O)NS(=O)(=O)c4ccc(NCC5CCOCC5)c([N+](=O)[O-])c4)c(Oc4cnc5[nH]ccc5c4)c3)CC2)=C(c2ccc(Cl)cc2)C1, the EC50 was 244 nM (cell kill, PI exclusion flow cytometry; normal CD3+ T lymphocytes, human, peripheral blood; 24 h).
c1ccc(-c2n[nH]cc2-c2ccnc3ccccc23)nc1: “log2 fold change” 1.27 (kinase binding, competitor, MIB/MS competition, item: IKS1; Candida albicans cell lysate; 100 nM; reference: DMSO).
For CC(C)NCC(O)c1ccc(O)c(O)c1 (stereo not drawn), the sarcomere length was 1.72 µm (ventricular cardiomyocytes, C57BL/6 mouse; dose not given, 0.356 s).
For CCCCCCCC(=O)OC[C@H](NC(=O)[C@H](CO)NC(=O)CN)C(=O)N[C@@H](Cc1ccccc1)C(=O)N[C@@H](CC(C)C)C(=O)N[C@@H](CO)C(=O)N1CCC[C@H]1C(=O)N[C@@H](CCC(=O)O)C(=O)N[C@@H](Cc1c[nH]cn1)C(=O)N[C@@H](CCC(N)=O)C(=O)N[C@@H](CCCNC(=N)N)C(=O)N[C@H](C(=O)N[C@@H](CCC(N)=O)C(=O)N[C@@H](CCC(N)=O)C(=O)N[C@@H](CCCNC(=N)N)C(=O)N[C@@H](CCCCN)C(=O)N[C@@H](CCC(=O)O)C(=O)N[C@@H](CO)C(=O)N[C@@H](CCCCN)C(=O)N[C@@H](CCCCN)C(=O)N1CCC[C@H]1C(=O)N1CCC[C@H]1C(=O)N[C@@H](C)C(=O)N[C@@H](CCCCN)C(=O)N[C@@H](CC(C)C)C(=O)N[C@@H](CCC(N)=O)C(=O)N1CCC[C@H]1C(=O)N[C@@H](CCCNC(=N)N)C(=O)O)C(C)C, “food intake increase” read about 175% (C57BL/6N mice, male; subcutaneous, 2 mg/kg, 1 h, standard chow; reference: saline).
C=CCn1c(=O)c2cnc(Nc3ccc(N4CCN(C)CC4)cc3)nc2n1-c1ccc2c(n1)[C@@](O)(CC)CC2 — result for “tumour growth inhibition”: 36.8% (OVCAR-8 xenograft, BALB/c nude mice; oral, 80 mg/kg, day 33, once daily 7 d on, 7 d off x 2).
CC#Cc1cncc(-c2ccc3c(c2)[C@@]2(N=C(C)C(N)=N2)[C@]2(CC[C@H](OC)CC2)C3)c1: “time to maximum effect” about 8 h (item: Aβ40 and Aβ42; Dunkin-Hartley guinea pigs, plasma; oral, dose not given).
[Cl-].[Cl-].[Pt+2].[Ru+2].c1ccc(-c2nc3cc4ccccc4cc3nc2-c2ccccn2)nc1.c1cnc2c(c1)ccc1cccnc12.c1cnc2c(c1)ccc1cccnc12 — result for “negative activation entropy”: 135 ± 7 J/(mol·K) (chloride substitution, UV-vis kinetics; aqueous buffer; concentration not given, pH 7.2, second substitution step, together with: thiourea).

Excerpt of the above:
For COC(=O)CCc1ccc(OCC(O)CNC(C)C)cc1 (stereo not drawn), “systolic blood pressure” read 109 mm Hg (healthy male humans; concentration not given, 15 min, baseline before dosing, together with: saline).
For CCCCCCCC(=O)OC[C@H](NC(=O)[C@H](CO)NC(=O)CN)C(=O)N[C@@H](Cc1ccccc1)C(=O)N[C@@H](CC(C)C)C(=O)N[C@@H](CO)C(=O)N1CCC[C@H]1C(=O)N[C@@H](CCC(=O)O)C(=O)N[C@@H](Cc1c[nH]cn1)C(=O)N[C@@H](CCC(N)=O)C(=O)N[C@@H](CCCNC(=N)N)C(=O)N[C@H](C(=O)N[C@@H](CCC(N)=O)C(=O)N[C@@H](CCC(N)=O)C(=O)N[C@@H](CCCNC(=N)N)C(=O)N[C@@H](CCCCN)C(=O)N[C@@H](CCC(=O)O)C(=O)N[C@@H](CO)C(=O)N[C@@H](CCCCN)C(=O)N[C@@H](CCCCN)C(=O)N1CCC[C@H]1C(=O)N1CCC[C@H]1C(=O)N[C@@H](C)C(=O)N[C@@H](CCCCN)C(=O)N[C@@H](CC(C)C)C(=O)N[C@@H](CCC(N)=O)C(=O)N1CCC[C@H]1C(=O)N[C@@H](CCCNC(=N)N)C(=O)O)C(C)C, “food intake increase” read about 175% (C57BL/6N mice, male; subcutaneous, 2 mg/kg, 1 h, standard chow; reference: saline).
C=C1CC[C@H](OCCCNC(=O)CCOCCOCCOCCOCCOCCOCCOCCOCCOCCOCCOCCOCCOCCOCCOCCOCCOCCOCCOCCOCCOCCOCCOCCOCCOCCOCCOCCOCCOCCOCCOCCOCCOCCOCCOCCOCCNC(=O)CCN2C(=O)CC(SC[C@H](NC(=O)[C@H](CCCNC(=N)N)NC(=O)[C@@H]3CCCN3C(=O)[C@H](CCC(N)=O)NC(=O)[C@H](CC(C)C)NC(=O)[C@H](CCCCN)NC(=O)[C@H](C)NC(=O)[C@@H]3CCCN3C(=O)[C@@H]3CCCN3C(=O)[C@H](CCCCN)NC(=O)[C@H](CCCCN)NC(=O)[C@H](CO)NC(=O)[C@H](CCC(=O)O)NC(=O)[C@H](CCCCN)NC(=O)[C@H](CCCNC(=N)N)NC(=O)[C@H](CCC(N)=O)NC(=O)[C@H](CCC(N)=O)NC(=O)[C@@H](NC(=O)[C@H](CCCNC(=N)N)NC(=O)[C@H](CCC(N)=O)NC(=O)[C@H](Cc3c[nH]cn3)NC(=O)[C@H](CCC(=O)O)NC(=O)[C@@H]3CCCN3C(=O)[C@H](CO)NC(=O)[C@H](CC(C)C)NC(=O)[C@H](Cc3ccccc3)NC(=O)[C@H](CNC(=O)CCCCCCC)NC(=O)[C@H](CO)NC(=O)CN)C(C)C)C(=O)O)C2=O)C/C1=C/C=C1\CCC[C@]2(C)[C@@H]([C@H](C)CCCC(C)(C)O)CC[C@@H]12 (stereo partly drawn): “food intake decrease” 6% (C57BL/6J mice, LLC tumour-induced cachexia; subcutaneous, 0.5 mg/kg every other day, 2 weeks; reference: tumour-bearing vehicle).
